Experimental data collected from several papers.
Parts stem from different laboratories: compare values within a part only. Changes are numbered by the printed parent chain.

Block 1
Target: PABPC1L2, full length, GST fusion (mouse, UniProt A0ABA7IW68)
Technique: RNAcompete
Molecule type: RNA
Medium: in vitro
Concentration: 20 nM
Setting: 7-mer, probes averaged, single round
Baseline: mean of 7-mers
Direction: higher = stronger binding
Residues (chain): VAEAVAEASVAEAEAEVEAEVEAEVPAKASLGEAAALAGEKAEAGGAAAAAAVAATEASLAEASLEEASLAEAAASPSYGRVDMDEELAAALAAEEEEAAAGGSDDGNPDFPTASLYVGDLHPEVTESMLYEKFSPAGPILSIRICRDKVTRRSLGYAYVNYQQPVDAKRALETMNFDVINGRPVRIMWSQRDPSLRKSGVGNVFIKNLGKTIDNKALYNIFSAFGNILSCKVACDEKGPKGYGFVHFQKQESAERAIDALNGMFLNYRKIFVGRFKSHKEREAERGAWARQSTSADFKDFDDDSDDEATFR
`CAUGUCG` has a 7-mer Z-score of -0.142.
For `GUAAAGU`, the 7-mer Z-score was 0.35.
The 7-mer Z-score of `CGGCGAC` is reported as 0.066.
`UUUUCUG` has a 7-mer Z-score of -0.371.
`GUACCGU` has a 7-mer Z-score of -0.253.
`CUAUCGU` gave a 7-mer Z-score of -0.353.
The 7-mer Z-score of `GGAUUGU` is reported as -0.11.
`CCGAUGG` has a 7-mer Z-score of -0.117.

Block 2
Target: Ras GTPase-activating protein-binding protein 1, RRM domain (G3BP1, Homo sapiens, UniProt Q13283)
UniProt Q13283, sequence (whole entry, looked up): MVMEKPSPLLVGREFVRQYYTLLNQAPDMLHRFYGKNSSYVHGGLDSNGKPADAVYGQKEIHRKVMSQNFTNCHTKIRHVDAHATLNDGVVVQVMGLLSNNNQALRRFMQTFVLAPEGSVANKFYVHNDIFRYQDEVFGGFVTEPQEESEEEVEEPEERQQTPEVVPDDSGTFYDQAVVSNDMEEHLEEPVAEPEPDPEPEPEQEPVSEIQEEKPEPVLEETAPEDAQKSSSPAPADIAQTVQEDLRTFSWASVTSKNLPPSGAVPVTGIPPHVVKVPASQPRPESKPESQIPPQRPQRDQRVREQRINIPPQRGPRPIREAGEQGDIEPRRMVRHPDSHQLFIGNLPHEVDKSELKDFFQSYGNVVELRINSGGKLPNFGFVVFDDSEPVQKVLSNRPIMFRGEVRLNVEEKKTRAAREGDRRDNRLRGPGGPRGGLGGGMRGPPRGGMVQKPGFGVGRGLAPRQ
Technique: RNA Bind-n-Seq
Molecule type: RNA
Medium: in vitro
Concentration: 1 µM
Setting: whole 134-nt RNA, ends assumed
Added: 150 mM KCl
Baseline: input library
Direction: higher = stronger binding
Constant ends, left off below: GGGAGUUCUACAGUCCGACGAUC … UGGAAUUCUCGGGUGUCAAGG
For `ACCAUGCAGGUGGGCAUCUUUGGGAAGUGGGGCAAGGGGGGGAUAGGGAGGGGGGAAACACUUUGGGAACAGGUGGUCCCAGGUCGUUUC`, the log2 enrichment was -0.48.
`AGUCCUGUGCUACACAUCGUAUGUACCGAAUCAAAUUUUUAAACCCAAAUUUUUAAAAAAGUAUUAUGUUACGCCGUUCGGAUCUGCACU` gave a log2 enrichment of -0.325.
The log2 enrichment of `UCCUGUGCUACACAUCGUAUGUACCGAAUCGGGGUUUUUGGGGUUUUUGGGUUUUUGGGAAAGUAUUAUGUUACGCCGUUCGGAUCUGCA` is reported as -0.0269.
`UGGGAGGUGGAUUUUGUUUAUUUUUUUAGCUCAUUUCCAGGGGUGGGAAUUUUUUUGUAAUAUGUGUCAUGAAUAAAGUUGUUUUUGAAA` has a log2 enrichment of 2.19.
With `CUCAAGUCCUGUGCUACACAUCGUAUGUACCGAAUCGGUUUUUUUGGAGGAGGAAAGUAUUAUGUUACGCCGUUCGGAUCUGCACUUCCA` the log2 enrichment was -0.125.
The log2 enrichment of `AGUCCUGUGCUACACAUCGUAUGUACCGAAUCGGGGAAAAGGGGAAAAGGAAAAGGGAAAGUAUUAUGUUACGCCGUUCGGAUCUGCACU` is reported as -0.104.
For `UCCUGUGCUACACAUCGUAUGUACCGAAUCGGGGUUUGGGGAAAGGGGAAAAAAAGGGGAAAGUAUUAUGUUACGCCGUUCGGAUCUGCA`, the log2 enrichment was 0.758.
With `AAGUCCUGUGCUACACAUCGUAUGUACCGAAUCGGGGAAAGGGGAAAGGGGAAAGGAAAGUAUUAUGUUACGCCGUUCGGAUCUGCACUU` the log2 enrichment was -0.0713.

Block 3
Target: Sal-like protein 4, full length isoform B (SALL4, Homo sapiens, UniProt Q9UJQ4-2, residues 1-616)
Technique: universal PBM
Molecule type: double-stranded DNA, one strand shown
Medium: in vitro
Concentration: not given
Setting: 8-mer, flanks averaged, mean of replicates
Direction: higher = stronger binding
Target sequence (chain): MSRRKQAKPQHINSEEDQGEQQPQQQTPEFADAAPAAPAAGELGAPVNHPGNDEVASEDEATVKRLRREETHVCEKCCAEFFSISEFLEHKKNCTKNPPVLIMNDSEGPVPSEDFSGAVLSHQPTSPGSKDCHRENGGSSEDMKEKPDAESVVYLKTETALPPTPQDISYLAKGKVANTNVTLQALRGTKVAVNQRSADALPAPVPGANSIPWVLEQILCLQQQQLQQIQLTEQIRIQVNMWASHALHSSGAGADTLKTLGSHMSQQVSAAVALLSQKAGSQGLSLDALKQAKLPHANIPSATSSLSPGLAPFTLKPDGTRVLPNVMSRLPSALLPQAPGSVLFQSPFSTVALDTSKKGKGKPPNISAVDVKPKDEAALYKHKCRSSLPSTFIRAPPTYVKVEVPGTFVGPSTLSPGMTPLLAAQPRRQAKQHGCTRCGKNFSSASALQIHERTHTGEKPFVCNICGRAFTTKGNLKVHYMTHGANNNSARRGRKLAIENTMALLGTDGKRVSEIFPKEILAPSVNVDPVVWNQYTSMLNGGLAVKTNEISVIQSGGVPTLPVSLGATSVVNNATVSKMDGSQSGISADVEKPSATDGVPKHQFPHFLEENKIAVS
`ACCCTCTC` has an E-score of -0.141.
The E-score of `GACACTGC` is reported as -0.128.
For `TCTGAAAA`, the E-score was 0.124.
The E-score of `GTGCAATA` is reported as 0.259.
`ATCCAATC` gave an E-score of 0.126.
`AACAGCAG` has an E-score of 0.0514.
For `TGGTTAAA`, the E-score was 0.223.
The E-score of `ATGCCCAG` is reported as -0.128.

Single results of other studies
Starting sequence: PafA, mature enzyme, eGFP fusion (Elizabethkingia meningoseptica, UniProt Q9KJX5); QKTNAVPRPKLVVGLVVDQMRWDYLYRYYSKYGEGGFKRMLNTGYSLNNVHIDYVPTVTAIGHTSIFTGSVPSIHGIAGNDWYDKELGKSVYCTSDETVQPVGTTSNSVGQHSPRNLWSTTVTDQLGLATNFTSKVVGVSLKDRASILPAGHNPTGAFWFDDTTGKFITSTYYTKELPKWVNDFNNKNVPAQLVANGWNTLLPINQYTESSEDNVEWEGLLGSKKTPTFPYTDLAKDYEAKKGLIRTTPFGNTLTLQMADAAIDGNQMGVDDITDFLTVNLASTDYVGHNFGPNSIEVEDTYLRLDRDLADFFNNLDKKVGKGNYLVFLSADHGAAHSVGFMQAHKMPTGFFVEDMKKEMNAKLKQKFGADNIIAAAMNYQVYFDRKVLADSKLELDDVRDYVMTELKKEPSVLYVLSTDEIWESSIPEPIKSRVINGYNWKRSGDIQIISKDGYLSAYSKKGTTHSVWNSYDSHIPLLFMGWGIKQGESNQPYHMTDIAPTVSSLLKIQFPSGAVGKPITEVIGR
`S108G`: “oxyanion analog dissociation constant” 796 nM (vanadate, free oxyanion; microfluidic competitive inhibition; in vitro, cell-free expressed; not given, derived from inhibition constants, unchanged parent 676 nM; lower = stronger binding).

Some of these lines once more (block 1):
The 7-mer Z-score of `CGGCGAC` is reported as 0.066.
`UUUUCUG` has a 7-mer Z-score of -0.371.
`GUACCGU` has a 7-mer Z-score of -0.253.
`CUAUCGU` gave a 7-mer Z-score of -0.353.
